# Measurements from different studies.
# ± marks the error that the study gave.
# WDR5: WD repeat-containing protein 5 (WDR5, Homo sapiens, UniProt P61964)
# CA12: Carbonic anhydrase 12 (CA12, Homo sapiens, UniProt O43570)
# UniProt O43570, sequence (whole entry, looked up): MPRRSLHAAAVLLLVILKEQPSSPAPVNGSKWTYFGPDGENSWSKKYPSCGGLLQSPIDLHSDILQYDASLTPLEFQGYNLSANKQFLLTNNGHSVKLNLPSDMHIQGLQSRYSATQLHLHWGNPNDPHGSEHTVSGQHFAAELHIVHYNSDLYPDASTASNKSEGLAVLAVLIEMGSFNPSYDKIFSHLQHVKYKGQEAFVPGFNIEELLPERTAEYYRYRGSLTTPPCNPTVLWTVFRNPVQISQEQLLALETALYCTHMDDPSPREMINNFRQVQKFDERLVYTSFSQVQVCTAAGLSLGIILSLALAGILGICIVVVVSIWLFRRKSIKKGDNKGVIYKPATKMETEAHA
# HDAC6: Protein deacetylase HDAC6 (HDAC6, Homo sapiens, UniProt Q9UBN7)
# UniProt Q9UBN7, sequence (whole entry, looked up): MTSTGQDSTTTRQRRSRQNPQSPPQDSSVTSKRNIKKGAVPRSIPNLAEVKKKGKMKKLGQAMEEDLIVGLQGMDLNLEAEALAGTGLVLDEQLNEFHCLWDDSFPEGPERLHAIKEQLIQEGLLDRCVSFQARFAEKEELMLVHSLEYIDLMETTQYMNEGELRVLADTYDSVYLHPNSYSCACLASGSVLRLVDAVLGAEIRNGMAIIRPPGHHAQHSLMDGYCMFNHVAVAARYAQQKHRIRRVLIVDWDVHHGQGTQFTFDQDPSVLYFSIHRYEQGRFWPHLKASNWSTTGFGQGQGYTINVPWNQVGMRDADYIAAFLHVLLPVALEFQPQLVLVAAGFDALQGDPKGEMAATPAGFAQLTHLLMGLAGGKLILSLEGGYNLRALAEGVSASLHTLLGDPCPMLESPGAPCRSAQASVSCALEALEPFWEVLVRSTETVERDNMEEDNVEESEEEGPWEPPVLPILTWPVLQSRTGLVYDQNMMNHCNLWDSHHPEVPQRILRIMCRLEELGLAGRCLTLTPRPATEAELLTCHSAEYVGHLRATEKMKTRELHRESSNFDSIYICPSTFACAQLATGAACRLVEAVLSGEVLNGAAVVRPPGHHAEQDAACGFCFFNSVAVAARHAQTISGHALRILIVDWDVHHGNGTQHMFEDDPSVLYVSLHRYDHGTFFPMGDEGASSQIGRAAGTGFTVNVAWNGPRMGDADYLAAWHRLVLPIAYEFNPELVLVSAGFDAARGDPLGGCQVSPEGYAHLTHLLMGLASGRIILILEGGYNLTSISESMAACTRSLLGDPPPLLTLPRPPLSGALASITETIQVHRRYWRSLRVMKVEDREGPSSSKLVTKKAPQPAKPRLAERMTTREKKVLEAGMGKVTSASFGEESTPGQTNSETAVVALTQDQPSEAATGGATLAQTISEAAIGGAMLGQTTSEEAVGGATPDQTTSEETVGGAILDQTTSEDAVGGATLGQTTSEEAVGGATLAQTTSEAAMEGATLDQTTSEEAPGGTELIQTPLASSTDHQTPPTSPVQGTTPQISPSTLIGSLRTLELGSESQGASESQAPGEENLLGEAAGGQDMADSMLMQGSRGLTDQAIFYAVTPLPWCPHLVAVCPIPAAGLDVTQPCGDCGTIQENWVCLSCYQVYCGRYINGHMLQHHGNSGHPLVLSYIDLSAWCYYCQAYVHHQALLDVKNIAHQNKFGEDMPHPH
# POLL: DNA polymerase lambda (POLL, Homo sapiens, UniProt Q9UGP5)
# UniProt Q9UGP5, sequence (whole entry, looked up): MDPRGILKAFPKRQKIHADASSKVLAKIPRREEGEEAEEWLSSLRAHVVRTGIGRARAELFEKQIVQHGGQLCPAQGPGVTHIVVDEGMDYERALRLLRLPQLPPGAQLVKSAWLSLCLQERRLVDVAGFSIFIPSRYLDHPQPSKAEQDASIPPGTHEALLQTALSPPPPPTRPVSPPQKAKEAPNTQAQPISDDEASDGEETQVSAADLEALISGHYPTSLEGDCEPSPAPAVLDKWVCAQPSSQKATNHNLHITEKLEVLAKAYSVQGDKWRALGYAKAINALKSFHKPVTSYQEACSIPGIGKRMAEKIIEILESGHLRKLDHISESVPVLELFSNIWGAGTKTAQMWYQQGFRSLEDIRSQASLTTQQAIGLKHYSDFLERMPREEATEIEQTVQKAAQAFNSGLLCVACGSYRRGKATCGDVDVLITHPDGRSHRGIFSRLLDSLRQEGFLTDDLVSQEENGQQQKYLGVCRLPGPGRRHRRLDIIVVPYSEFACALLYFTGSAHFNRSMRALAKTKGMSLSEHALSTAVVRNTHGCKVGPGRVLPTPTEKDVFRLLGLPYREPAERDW
# UniProt P11086, sequence (whole entry, looked up): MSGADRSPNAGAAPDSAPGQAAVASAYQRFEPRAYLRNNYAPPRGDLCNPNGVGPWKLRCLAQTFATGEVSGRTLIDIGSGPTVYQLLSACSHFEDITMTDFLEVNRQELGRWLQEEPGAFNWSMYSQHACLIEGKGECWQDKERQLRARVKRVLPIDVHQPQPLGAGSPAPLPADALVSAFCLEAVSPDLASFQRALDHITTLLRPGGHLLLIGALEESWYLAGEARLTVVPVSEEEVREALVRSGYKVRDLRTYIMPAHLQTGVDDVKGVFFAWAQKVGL
# UniProt Q14680, sequence (whole entry, looked up): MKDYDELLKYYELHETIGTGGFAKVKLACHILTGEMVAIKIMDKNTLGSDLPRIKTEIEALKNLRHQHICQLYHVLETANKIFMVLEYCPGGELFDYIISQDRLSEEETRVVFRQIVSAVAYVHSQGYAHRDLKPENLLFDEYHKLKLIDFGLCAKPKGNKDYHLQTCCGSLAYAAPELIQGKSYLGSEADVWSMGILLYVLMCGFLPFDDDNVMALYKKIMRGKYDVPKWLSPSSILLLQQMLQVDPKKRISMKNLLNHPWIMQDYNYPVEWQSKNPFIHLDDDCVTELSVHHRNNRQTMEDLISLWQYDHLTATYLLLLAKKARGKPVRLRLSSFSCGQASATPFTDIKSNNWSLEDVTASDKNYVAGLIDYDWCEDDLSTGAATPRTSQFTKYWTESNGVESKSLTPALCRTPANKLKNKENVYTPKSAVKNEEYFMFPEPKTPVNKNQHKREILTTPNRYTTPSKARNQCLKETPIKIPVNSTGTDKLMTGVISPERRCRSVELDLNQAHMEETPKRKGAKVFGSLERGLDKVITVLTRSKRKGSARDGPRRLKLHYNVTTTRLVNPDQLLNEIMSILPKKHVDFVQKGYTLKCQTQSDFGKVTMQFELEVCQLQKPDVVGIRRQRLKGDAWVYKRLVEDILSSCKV
# UniProt P04062, sequence (whole entry, unmodified, looked up): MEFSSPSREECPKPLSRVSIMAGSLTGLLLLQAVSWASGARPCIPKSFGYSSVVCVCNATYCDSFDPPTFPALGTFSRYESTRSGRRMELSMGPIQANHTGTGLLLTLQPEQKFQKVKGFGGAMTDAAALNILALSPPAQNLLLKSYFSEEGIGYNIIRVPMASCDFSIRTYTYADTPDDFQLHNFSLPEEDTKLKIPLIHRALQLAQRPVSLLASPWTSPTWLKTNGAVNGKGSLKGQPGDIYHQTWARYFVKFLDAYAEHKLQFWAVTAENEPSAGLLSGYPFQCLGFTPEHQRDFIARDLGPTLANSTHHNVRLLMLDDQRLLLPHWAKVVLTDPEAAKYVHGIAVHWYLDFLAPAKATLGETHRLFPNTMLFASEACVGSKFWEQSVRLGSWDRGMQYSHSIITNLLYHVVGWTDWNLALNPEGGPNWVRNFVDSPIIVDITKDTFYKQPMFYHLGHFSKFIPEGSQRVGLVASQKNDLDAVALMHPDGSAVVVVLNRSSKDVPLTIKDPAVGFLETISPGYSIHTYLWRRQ
# UniProt P00797, sequence (whole entry, looked up): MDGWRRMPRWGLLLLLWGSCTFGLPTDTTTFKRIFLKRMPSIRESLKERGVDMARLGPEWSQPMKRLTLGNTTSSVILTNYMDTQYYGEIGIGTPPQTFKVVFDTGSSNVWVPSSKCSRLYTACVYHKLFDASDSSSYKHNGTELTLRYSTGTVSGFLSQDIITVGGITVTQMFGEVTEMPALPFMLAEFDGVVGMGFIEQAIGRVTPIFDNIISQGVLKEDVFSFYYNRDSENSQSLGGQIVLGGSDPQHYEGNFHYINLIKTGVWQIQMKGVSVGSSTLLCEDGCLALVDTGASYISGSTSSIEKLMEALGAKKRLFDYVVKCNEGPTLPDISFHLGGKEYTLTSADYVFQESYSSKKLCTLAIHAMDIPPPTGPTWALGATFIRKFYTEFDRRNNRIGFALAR
# UniProt P45983, sequence (whole entry, looked up): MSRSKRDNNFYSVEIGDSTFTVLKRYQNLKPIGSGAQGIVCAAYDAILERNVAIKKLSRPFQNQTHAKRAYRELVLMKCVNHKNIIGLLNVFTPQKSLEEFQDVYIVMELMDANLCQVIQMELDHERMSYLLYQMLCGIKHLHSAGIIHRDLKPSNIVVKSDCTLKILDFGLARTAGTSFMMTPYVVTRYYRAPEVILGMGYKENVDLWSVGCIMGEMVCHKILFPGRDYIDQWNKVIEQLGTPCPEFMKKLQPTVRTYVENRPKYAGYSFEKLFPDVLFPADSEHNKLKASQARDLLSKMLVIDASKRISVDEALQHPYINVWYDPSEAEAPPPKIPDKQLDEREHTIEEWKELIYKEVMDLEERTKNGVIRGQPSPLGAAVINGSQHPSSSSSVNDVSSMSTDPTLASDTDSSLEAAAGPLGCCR
# UniProt P28223, sequence (whole entry, looked up): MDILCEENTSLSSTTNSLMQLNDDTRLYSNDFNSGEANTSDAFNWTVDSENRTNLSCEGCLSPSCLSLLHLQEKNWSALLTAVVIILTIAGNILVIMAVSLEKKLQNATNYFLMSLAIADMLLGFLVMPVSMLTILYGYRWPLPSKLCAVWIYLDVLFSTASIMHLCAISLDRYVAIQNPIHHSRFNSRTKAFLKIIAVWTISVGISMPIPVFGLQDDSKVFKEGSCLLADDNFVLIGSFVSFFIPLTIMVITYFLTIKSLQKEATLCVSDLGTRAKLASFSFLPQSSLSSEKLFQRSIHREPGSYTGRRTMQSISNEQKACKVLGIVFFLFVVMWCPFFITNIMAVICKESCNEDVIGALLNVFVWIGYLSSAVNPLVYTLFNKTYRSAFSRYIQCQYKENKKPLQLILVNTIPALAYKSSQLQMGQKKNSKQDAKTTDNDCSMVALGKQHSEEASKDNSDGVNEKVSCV
Compound,tested on,assay,conditions,how to read,quantity,result
CNS(=O)(=O)Nc1nccc(Cc2c(C)c3ccc(Oc4ncccc4F)cc3oc2=O)c1F,HEL,cell viability,7 days,,IC50,> 1000 nM
Nc1ncnc2c1ncn2[C@@H]1O[C@H](CN(CCCc2cncc3ccccc23)CC[C@H](N)C(=O)O)[C@@H](O)[C@H]1O,"PNMT (Homo sapiens, UniProt P11086)","enzyme activity, inhibitor, coupled-enzyme",,,Ki,64000 ± 10000 nM
CC[C@@H]1NC(=O)[C@H](CCCNC(=N)N)NC(=O)[C@H](NC(=O)C(C)C)CCNC(=O)c2cc(F)c(c(F)c2)N=Nc2c(F)cc(cc2F)C(=O)NCCNC1=O,WDR5,"binding, inhibitor, competitive fluorescence polarization","cis isomer, 520 nm photostationary state",,Ki,459 nM
O=C1CCc2c(ccc3ccccc23)O1,CA12,"enzyme activity, inhibitor, stopped-flow",,,Ki,5700 nM
Cc1ncsc1-c1ccc(C(C)NC(=O)C2CC(O)CN2C(=O)C(NC(=O)CCCCCCCCCCN2CCCC(Nc3ncc(Cl)c(Nc4ccccc4S(=O)(=O)C(C)C)n3)C2)C(C)(C)C)cc1 (stereo not shown),22Rv1,"RNA-seq, item: RTN4RL1 mRNA",concentration not given,relative to: DMSO,log2 fold change,-2.6
O=C(NO)c1cncc(OS(=O)(=O)Oc2ccccc2-c2ccccc2)c1,HDAC6,"enzyme activity, inhibitor, fluorescence",,,Ki,110 nM
CC[C@@H]1NC(=O)[C@H](CCCNC(=N)N)NC(=O)[C@H](NC(=O)C(C)C)CCCCNC(=O)c2cc(F)c(c(F)c2)N=Nc2c(F)cc(cc2F)C(=O)NCCNC1=O,WDR5,"binding, inhibitor, competitive fluorescence polarization","cis isomer, 520 nm photostationary state",,Ki,2900 nM
CC(C)c1ccccc1OS(=O)(=O)Oc1cccc(C(=O)NO)c1,HDAC6,"enzyme activity, inhibitor, fluorescence",,,Ki,335 nM
CCCCCCC(=O)N[C@H]1CCOC1=O,CA12,"enzyme activity, inhibitor, stopped-flow",,,Ki,16900 nM
C=CC(=O)Nc1cccc(Cn2ncc3cnc(Nc4cnn(CCOC)c4)nc32)c1,DMPK human,"binding, KINOMEscan",100 nM,lower = stronger binding,percent of control,89%
COC(=O)[C@@]1(C)C=C(C(=O)Nc2cccc(C(=O)Nc3ccc(Nc4nccc(-c5cccnc5)n4)c(C)c3)c2)C(=O)CC1,"MAPK8 (Homo sapiens, UniProt P45983)",SPR two-step binding model,wild-type protein surface,,Ki,2.1 nM
O=C(NCCOP(=O)(O)OP(=O)(O)OP(=O)(O)O)OCC1c2ccccc2-c2ccccc21,POLL,"DNA polymerase activity, inhibitor","together with: 1 mM Mn2+, poly(dA)/oligo(dT)",,Ki,4500 nM
CN1CCCNC(=O)c2cccc(c2)C(=O)NCCCN(C)CCCNc2cccc3c2C(=O)c2cccc(c2C3=O)NCCC1,SAS,"RNA-Seq, item: HNRNPDL mRNA","1 µM, 6 h",relative to: untreated cells,log2 fold change,0.643
O=C(OCCCCOP(=O)(O)OP(=O)(O)OP(=O)(O)O)c1ccccc1,POLL,"DNA polymerase activity, inhibitor","together with: 1 mM Mn2+, poly(dA)/oligo(dT)",,Ki,1500 nM
O=C(NO)c1cccc(OS(=O)(=O)Oc2cccc([N+](=O)[O-])c2)c1,HDAC6,"enzyme activity, inhibitor, fluorescence",,,Ki,32 nM
O=C(NCCCCCCOP(=O)(O)OP(=O)(O)OP(=O)(O)O)OCC1c2ccccc2-c2ccccc21,POLL,"enzyme activity, inhibitor, radiometric",,,Ki,2000 nM
Nc1ncc(-c2cc(-c3cnn(CC(F)(F)F)c3)ncc2F)nc1C(=O)NC1CNCC(F)C1 (stereo not shown),KIT,KINOMEscan competition binding,1 µM,relative to: DMSO control,remaining binding,100%
OC[C@H]1[C@@H](O)[C@H](O)[C@@H](O)CN1CCCCCOCc1ccc2ccccc2c1,"GBA1 (Homo sapiens, UniProt P04062, R534H)","inhibitor, 4MU-β-D-glucopyranoside",together with: 4MU-β-D-glucopyranoside,,IC50,50000 nM
Cc1nn(-c2cccc(N)c2)c(=O)c2cnc(Nc3ccc(N4CCNCC4)cc3)nc12,"MELK (Homo sapiens, UniProt Q14680)","enzyme activity, inhibitor",,,IC50,1480 nM
CCc1c(Cl)cccc1N1CCN(C[C@@H](F)CCNC(=O)c2cc3ccccc3[nH]2)CC1,"HTR2A (Homo sapiens, UniProt P28223)","ligand displacement, radioligand",cell membranes,,Ki,292 nM
N#CSCCCCCCOc1ccc2c(-c3ccccc3)cc(=O)oc2c1,CA12,"enzyme activity, inhibitor, stopped-flow",,,Ki,126 nM
CCC1(CC)CC(=O)N(C2c3cc(C(=O)NC4c5ccccc5CC4O)ccc3OC2(C)COC)C(=N)N1 (stereo not shown),"Renin (REN, Homo sapiens, UniProt P00797)","enzyme activity, inhibitor",,,Ki,562 nM

# A few entries again:
Compound,tested on,assay,conditions,how to read,quantity,result
OC[C@H]1[C@@H](O)[C@H](O)[C@@H](O)CN1CCCCCOCc1ccc2ccccc2c1,"GBA1 (Homo sapiens, UniProt P04062, R534H)","inhibitor, 4MU-β-D-glucopyranoside",together with: 4MU-β-D-glucopyranoside,,IC50,50000 nM
COC(=O)[C@@]1(C)C=C(C(=O)Nc2cccc(C(=O)Nc3ccc(Nc4nccc(-c5cccnc5)n4)c(C)c3)c2)C(=O)CC1,"MAPK8 (Homo sapiens, UniProt P45983)",SPR two-step binding model,wild-type protein surface,,Ki,2.1 nM
